Assay results from different studies.
Each line is one published result; not all experiments were run side by side. Values joined by “and” are separate records of one study, mostly repeats; a detail may differ. ± gives the spread as reported.

SMILES	assay	system	setting	tissue uptake
N#C[C@@H]1CC(F)(F)CN1C(=O)CNC(=O)c1ccnc2c(NC(=O)[C@H](CCCCNC(=O)CCOCCOCCOCCOCCOCCOCCNC(=O)CN3CCN(CC(=O)[O-])CCN(CC(=O)[O-])CCN(CC(=O)[O-])CC3)NC(=O)CCCc3ccc(I)cc3)cccc12.[177Lu+3]	biodistribution	U-87 MG tumour-bearing mice, muscle	48 h	0.19 ± 0.06 %ID/g
Cc1cc(C)n(CCN(CCN)CCCCCCNC(=O)[C@@H](N)Cc2c[nH]c3ccccc23)n1.[99Tc+].[C-]#[O+].[C-]#[O+].[C-]#[O+]	–	BALB/c nude mice, A549 xenograft, muscle	intravenous, 15 min	0.55 ± 0.06 %IA/g
O=C(NCC1OC2CCC=CCCC2O1)c1ccc(COCCOCCOCC[18F])cc1 (centres unmarked)	–	healthy female BALB/c nude mice, lungs	intravenous, 7.4 MBq per mouse, 120 min	1.5 ± 0.1 %ID/g
CC(C)c1noc(C2CCN(c3ncnc(Nc4ccc(OCC[18F])cc4)c3[N+](=O)[O-])CC2)n1	ex vivo biodistribution after PET	C57BL/J male mice, heart	60 min	1.21 ± 0.15 %ID/g
CC(=O)N([O-])CCCCCNC(=O)CCC(=O)N([O-])CCCCCNC(=O)CCC(=O)N([O-])CCCCCN.[89Zr+4]	gamma counting	healthy Balb/c mice, muscle	intravenous, 4 h, 89Zr-labelled complex	0.03 ± 0.02 %ID/g
CC(C)C[C@H](NC(=O)[C@@H](CCCCNC(=O)[C@@H](Cc1ccccc1)NC(=O)CCCCCCCNC(=O)CN1CCN(CC(=O)O)CCN(CC(=O)O)CCN(CC(=O)O)CC1)NC(=O)[C@H](Cc1ccc(O)cc1)NC(=O)[C@H](CO)NC(=O)[C@H](Cc1c[nH]c2ccccc12)NC(=O)[C@H](Cc1c[nH]cn1)NC(=O)[C@@H]1CCC(=O)N1)C(=O)N[C@@H](CCCNC(=N)N)C(=O)N1CCC[C@H]1C(=O)NCC(N)=O [indium-111 labelled]	–	male athymic nude mice, DU-145 prostate cancer xenograft, intestines	intravenous, 0.037 MBq, 2 h	2.57 ± 0.34 %ID
C[N+](C)(CCOCCOCCOCCOCCOCCOCCOCCNC(=S)Nc1ccc(CC2CN(CC(=O)[O-])CCN(CC(=O)[O-])CCN2CC(=O)[O-])cc1)C[c-]1cccc1.[64Cu+2].[Fe+2].c1cc[cH-]c1 (centres unmarked)	refers to: large intestine	nude mice, BxPC-3 tumour	24 h post injection, pretargeting, 72 h lag	0.1 ± 0.1 %ID/g
CCCC[C@H](NC(=O)COCCOCCNC(=O)CN1CCN(CC(=O)O)CCN(CC(=O)O)CC1)C(=O)N[C@H]1CC(=O)NCCCC[C@@H](C(N)=O)NC(=O)[C@H](Cc2c[nH]c3ccccc23)NC(=O)[C@H](CCCNC(=N)N)NC(=O)[C@@H](Cc2ccccc2)NC(=O)[C@H](Cc2c[nH]cn2)NC1=O [fluorine-18 labelled]	–	C57 mice B16-F10 melanoma, liver	intravenous, 0.37 MBq, 1 h	1.12 ± 0.27 %ID/g
CCCC[C@H](NC(=O)CNC(=O)CNC(=O)[C@H](CCCCNC(=O)[C@H](CC(=O)O)NC(=O)C(C)c1ccc(CC(C)C)cc1)NC(=O)CN1CCN(CC(=O)O)CCN(CC(=O)O)CCN(CC(=O)O)CC1)C(=O)N[C@H]1CC(=O)NCCCC[C@@H](C(N)=O)NC(=O)[C@H](Cc2c[nH]c3ccccc23)NC(=O)[C@H](CCCNC(=N)N)NC(=O)[C@@H](Cc2ccccc2)NC(=O)[C@H](Cc2c[nH]cn2)NC1=O (some centres unmarked) [lutetium-177 labelled]	–	C57 mice, tumour-bearing, stomach	intravenous, 0.037 MBq, 0.5 h	3.99 ± 0.56 %ID/g
O=C([O-])CN1CCN(CC(=O)[O-])CCN(CC(=O)NC[C@H]2CC[C@H](C(=O)N[C@H](Cc3cnc4ccccc4c3)C(=O)NCCCC[C@H](NC(=O)N[C@@H](CCC(=O)O)C(=O)O)C(=O)O)CC2)CCN(CC(=O)[O-])CC1.[64Cu+2]	ex vivo gamma counting	22Rv1 tumour-bearing mice, muscle	intravenous, 0.74 MBq, 24 h post-injection	1.55 %ID/g
CN(O)C(=O)CCC(=O)NCCCN(CCCCN(CCCNC(=O)CCC(=O)N(C)O)C(=O)CCC(=O)N(C)O)C(=O)CCC(=O)N(C)O.[89Zr]	gamma counting	healthy Balb/c mice, muscle	intravenous, 1 h, 89Zr-labelled complex	0.39 ± 0.33 %ID/g
Cc1cc(C)n(CCN(CCN)CCCCCCNC(=O)[C@@H](N)Cc2c[nH]cn2)n1.[99Tc+].[C-]#[O+].[C-]#[O+].[C-]#[O+]	–	BALB/c nude mice A549 xenograft, tumor	intravenous, 15 min	2.12 ± 0.07 %ID/g
Cc1nc(N)nc2c1C(=O)N[C@@H](c1ccc(F)cc1-c1cccc(OCC[18F])n1)C2	ex vivo biodistribution	C57BL/6 mice, liver	intravenous, 1 MBq, 30 min	15.1 ± 0.14 %ID
C[N+](C)(CCOCCOCCOCCNC(=S)Nc1ccc(C[C@H]2CN(CC(=O)[O-])CCN(CC(=O)[O-])CCN2CC(=O)[O-])cc1)C[c-]1cccc1.[64Cu+2].[Fe+2].c1cc[cH-]c1	refers to: large intestine	nude mice, BxPC-3 tumour	24 h post injection, pretargeting, 72 h lag	0.1 %ID/g
CC[C@H](C)[C@H](NC(=O)C[C@H](NC(=O)CN1CCN2CCN(CC1)CC(=O)[O][Al]([18F])[O]C(=O)C2)C(=O)O)C(=O)N[C@H]1CCc2cccc3c2N(C1=O)[C@H](C(=O)NCc1cn[nH]n1)C3	–	C57BL/6J mice, MC-38 tumour, anti-PD-1 treated, intestine	0.5 h	0.8 ± 0.24 %ID/g
O=C(NCC1OC2CCC=CCCC2O1)c1ccc([18F])nc1 (centres unmarked)	–	healthy female BALB/c nude mice, stomach	intravenous, 7.4 MBq per mouse, 120 min	0.5 ± 0.1 %ID/g
COc1ccc2c(c1)C(C)(C)C(/C=C/C1=C(Oc3ccc(C(=O)NCCCCOc4cc(CN(Cc5ccccn5)Cc5ccccn5)cc(CN(Cc5ccccn5)Cc5ccccn5)c4)cc3)C(=C/C=C3/N(CCCCS(=O)(=O)[O-])c4ccc(OC)cc4C3(C)C)CCC1)=[N+]2CCCCS(=O)(=O)[O-].O=[N+]([O-])[O-].O=[N+]([O-])[O-].[99Tc+].[C-]#[O+].[C-]#[O+].[C-]#[O+].[Zn+2]	–	healthy BALB/c mice, bone	12 h	0.76 %ID/g and 0.63 %ID/g and 0.89 %ID/g and 0.84 %ID/g
N#C[C@@H]1CCCN1C(=O)CNC(=O)c1ccnc2ccc(OCCCN3CCN(C(=O)CCc4ccc5c(c4)CN4CCN6CC(=O)[O][68Ga-]([O]C(=O)C4)([O]5)[O]c4ccc(CCC(=O)N5CCN(CCCOc7ccc8nccc(C(=O)NCC(=O)N9CCC[C@H]9C#N)c8c7)CC5)cc4C6)CC3)cc12	–	BALB/c nude mice, U-87 MG xenograft, kidney	1 h, blocking, added: DOTA-FAPI-04 40 nmol/mouse co-injected	4.45 ± 1.09 %ID/g
COc1ccc(Nc2nc(Nc3ccc(OCCOCC[18F])cc3)ncc2Br)cc1	–	ICR mice, S180 tumour, intestine	intravenous, 370 kBq, 60 min	4.33 ± 0.09 %ID
CCCC[C@H](NC(=O)CCCCCCCNC(=O)CN1CCN(CC(=O)O)CCN(CC(=O)O)CC1)C(=O)N[C@H]1CC(=O)NCCCC[C@@H](C(N)=O)NC(=O)[C@H](Cc2c[nH]c3ccccc23)NC(=O)[C@H](CCCNC(=N)N)NC(=O)[C@@H](Cc2ccccc2)NC(=O)[C@H](Cc2c[nH]cn2)NC1=O [fluorine-18 labelled]	–	C57 mice B16-F10 melanoma, lung	intravenous, 0.37 MBq, 0.5 h	3.37 ± 0.61 %ID/g
CCCC[C@H](NC(=O)CNC(=O)CNC(=O)[C@H](CCCCNC(=O)[C@H](CCN)NC(=O)C(C)c1ccc(CC(C)C)cc1)NC(=O)CN1CCN(CC(=O)O)CCN(CC(=O)O)CCN(CC(=O)O)CC1)C(=O)N[C@H]1CC(=O)NCCCC[C@@H](C(N)=O)NC(=O)[C@H](Cc2c[nH]c3ccccc23)NC(=O)[C@H](CCCNC(=N)N)NC(=O)[C@@H](Cc2ccccc2)NC(=O)[C@H](Cc2c[nH]cn2)NC1=O (some centres unmarked) [lutetium-177 labelled]	–	C57 mice, tumour-bearing, spleen	2 h	3.34 ± 1.03 %ID/g
N#C[C@@H]1CCCN1C(=O)CNC(=O)c1ccnc2ccc(OCCCN3CCN(C(=O)CCc4ccc(O)c(CN5CCN6CC(=O)[O][Al-]([18F])([O]C(=O)C5)[O]c5ccc(CCC(=O)N7CCN(CCCOc8ccc9nccc(C(=O)NCC(=O)N%10CCC[C@H]%10C#N)c9c8)CC7)cc5C6)c4)CC3)cc12 (some centres unmarked)	–	BALB/c nude mice, U-87 MG xenograft, kidney	2 h	2.9 ± 0.45 %ID/g
COc1ccc(Nc2nc(Nc3ccc(OCCOCCOCC[18F])cc3)ncc2Br)cc1	–	ICR mice, S180 tumour, intestine	intravenous, 370 kBq, 30 min	4.62 ± 0.04 %ID

Excerpt of the above:
SMILES	assay	system	setting	tissue uptake
N#C[C@@H]1CCCN1C(=O)CNC(=O)c1ccnc2ccc(OCCCN3CCN(C(=O)CCc4ccc5c(c4)CN4CCN6CC(=O)[O][68Ga-]([O]C(=O)C4)([O]5)[O]c4ccc(CCC(=O)N5CCN(CCCOc7ccc8nccc(C(=O)NCC(=O)N9CCC[C@H]9C#N)c8c7)CC5)cc4C6)CC3)cc12	–	BALB/c nude mice, U-87 MG xenograft, kidney	1 h, blocking, added: DOTA-FAPI-04 40 nmol/mouse co-injected	4.45 ± 1.09 %ID/g
COc1ccc(Nc2nc(Nc3ccc(OCCOCC[18F])cc3)ncc2Br)cc1	–	ICR mice, S180 tumour, intestine	intravenous, 370 kBq, 60 min	4.33 ± 0.09 %ID
